Experimental data pooled from the literature.
Compare with care: the assays were run in different laboratories. “And” joins repeats or separate records; there may be more than shown. Numbers after ± are the reported error.
HTR2A: 5-hydroxytryptamine receptor 2A (HTR2A, Homo sapiens, UniProt P28223)
SLC6A6 Y138A: Sodium- and chloride-dependent taurine transporter (SLC6A6, Homo sapiens, UniProt P31641, Y138A)
RFWD3: RFWD3 (Homo sapiens, UniProt Q6PCD5)

`Nc1ncnc2c1ncn2[C@@H]1O[C@H](COP(=O)(O)OP(=O)(O)OP(=O)(O)O)[C@@H](O)[C@H]1O` gave a normalized current of 0.961 and 0.981 and 0.929 (P2X purinoceptor 7 (P2rx7, Rattus norvegicus, UniProt Q64663, Q143A); ion current, agonist, two-electrode voltage clamp; Xenopus laevis oocytes; 500 µM; reference: highest concentration response).
`CC(C)(C)Cn1c(N)nc2ccc(-c3[nH]c(C(C)(C)C)nc3-c3ccc(F)cc3)nc21` — result for kinase activity: “inactive” (MAPK12 (Homo sapiens, UniProt P53778); inhibitor; up to 10 µM).
`O=S(O)(O)=S` gave a thermal shift of 5.01 °C (Uncharacterized protein (Pelagibacter ubique, UniProt Q4FKX4); differential scanning fluorimetry; Candidatus Pelagibacter ubique; in-house screen).
For `CC(C)C[C@H](NC(=O)[C@H]1O[C@@H]1C(=O)O)C(=O)NCCCCN=C(N)N`, the kinact/KI was 18000 ± 11000 M⁻¹ s⁻¹ (Cathepsin B (CTSB, Homo sapiens, UniProt P07858); enzyme inactivation, irreversible inhibitor; pH 5.8, 37 °C, human liver enzyme).
The inhibition of `Cc1ccnc(C)c1OC[C@H]1CN(CCN2CCc3ccccc32)CCO1` is reported as 42.1% (HTR7 (Homo sapiens, UniProt P34969); radioligand binding; concentration not given, together with: [3H]LSD).
`Cc1cccc(C[C@H](NC(=O)OCc2ccccc2)C(=O)N[C@@H](CC(C)C)C(=O)N[C@H](B(O)O)C(C)C)c1`: “fold increase in potency” 9 fold (Serine protease HTRA1 (Homo sapiens, UniProt Q92743); enzyme activity, inhibitor; reference: 5).
With `Nc1ncnc2c1ncn2[C@@H]1O[C@H](COP(=O)(O)OP(=O)(O)OP(=O)(O)O)[C@@H](O)[C@H]1O` the Km was 120 ± 60 µM (CKMT1A (Homo sapiens, UniProt P12532, E265Q); substrate, ADP-Glo luminescence; pH 8.5, forward reaction, E227Q mutant, together with: second substrate in excess).
The current potentiation of `Cc1ccc(C(=O)Nc2ccc3ccccc3c2)o1` is reported as 1.62 fold (OTOP1 (Homo sapiens, UniProt Q7RTM1); proton current, potentiator, whole-cell patch-clamp; HEK-293T; 10 µM, pH 5.5; reference: current before compound).
`COc1ccc2c(c1)C(=O)N(CCCN1CCN(c3ccccc3OC)CC1)C2` has an inhibition of 73% (HTR2A; radioligand binding; concentration not given, together with: [3H]ketanserin).
`Nc1ncnc2c1ncn2[C@@H]1O[C@H](COP(=O)(O)CP(=O)(O)OP(=O)(O)O)[C@@H](O)[C@H]1O` gave a calcium influx of 100% and 94.4% (P2X purinoceptor 1 (P2RX1, Homo sapiens, UniProt P51575, E122A); calcium influx; 31.6 µM; reference: ionomycin response).
`CCCCC[S+]([O-])c1n[nH]c(N)n1` (stereo not shown): “log fold enrichment” 0.129 (WD repeat-containing protein 55 (WDR55, Homo sapiens, UniProt Q9H6Y2); binding, affinity selection mass spectrometry; reference: other proteins in batch).
With `O=c1nc(SCc2cc(F)cc(C(F)(F)F)c2)nc(SCc2csc3ccc(Cl)cc23)[nH]1` the decatenated DNA was 4.3% (TOP2B (Homo sapiens, UniProt Q02880); decatenation; 15.6 µM, replicate 1).
The ΔG of `CC(=O)N[C@H](C(=O)N1C[C@H](O)C[C@H]1C(=O)NCc1ccc(-c2scnc2C)cc1)C(C)(C)SCCCCCCNC(=O)C[C@@H]1N=C(c2ccc(Cl)cc2)c2c(sc(C)c2C)-n2c(C)nnc21` is reported as -9 ± 0.3 kcal/mol (BRD2/VHL, BD1; with VCB (Homo sapiens, UniProt P25440+P40337); ITC; 25 °C, BRD2 BD1, ternary).
For `Cc1nc(N)sc1-c1csc(Nc2ccc([N+](=O)[O-])cc2)n1`, enzyme inhibition read “inhibited” (Protein-lysine 6-oxidase (Homo sapiens, UniProt P28300); inhibitor; 10 µM, no preincubation).
With `CCCCCC(O)C(CC=O)SC[C@H](NC(C)=O)C(=O)O` (stereo partly shown) the Km was 200 µM (N-acyl-aromatic-L-amino acid amidohydrolase (carboxylate-forming) (Acy3, Mus musculus, UniProt Q91XE4); enzyme activity, substrate, fluorescamine fluorescence; without Co2+).
Under “normalised MST signal”, `NCCS(=O)(=O)O` is recorded as 0.00185 (SLC6A6 Y138A; binding, microscale thermophoresis; 15.6 µM, room temperature, together with: 50 nM labelled protein; higher = more binding).
`CC(C)OCCn1c(=S)[nH]c(=O)c2[nH]ccc21`: “LDL lipid peroxidation” 10.7% and 13.7% and 17.9% and 22.1% (Myeloperoxidase (MPO, Homo sapiens, UniProt P05164); inhibitor, cholesteryl ester hydroperoxide; 3.333 µM; reference: control).
`O=C(NC1CCC1)c1ccc2nc(-c3cccc(NS(=O)(=O)NCCN4CCCCC4)c3)cn2c1` gave a remaining activity of 89% (MAP3K13 (Homo sapiens, UniProt O43283); enzyme activity; 10 µM).
For `Nc1nc2c(ncn2[C@@H]2O[C@H](COP(=O)(O)O)[C@@H](O)[C@H]2O)c(=O)[nH]1`, the reaction rate was 0.696 s⁻¹ and -0.00766 s⁻¹ and -0.712 s⁻¹ (GUK1 (Homo sapiens, UniProt Q16774, R44A); enzyme activity, NADH-coupled; 1000 µM).
The fold enrichment of `Cc1cccc(N2CC(C(=O)O)CC2=O)c1` (stereo not shown) is reported as 0.85 (RFWD3; binding, affinity selection mass spectrometry; reference: other proteins in batch).
`COc1ccccc1-c1n[nH]c2nc(N[C@H]3CC[C@H](NS(=O)(=O)CCCOCCOCCNC(=O)OC(C)(C)C)CC3)ncc12` — result for “log2 fold change”: 3.12 (mitogen-activated protein kinase 9 (Leishmania donovani, UniProt A0A3Q8IB74); resin binding, SILAC competition pull-down, item: MPK9; Leishmania donovani extract; 10 µM; reference: heavy over light).
`O=C(COP(=O)(O)O)[C@@H](O)[C@H](O)[C@H](O)COP(=O)(O)O` — result for “thermal stability ratio”: 0.5 and 0.7 and 0.571 (Peroxisomal bifunctional enzyme (EHHADH, Homo sapiens, UniProt Q08426); thermal proteome profiling, item: EHHADH; HepG2 cell lysate; concentration not given, 57 over 37 °C; reference: compound over control).
The Hill coefficient of `O=C1Nc2c(ccc(Cl)c2Cl)C1=NO` is reported as 1.3 (KCNN4/CALM1 (Homo sapiens, UniProt O15554+P0DP23); activator, whole-cell patch clamp; HEK293; together with: free calcium 250 nM).
For `CC[C@H](C)[C@H](NC(=O)[C@H](CCCNC(=N)N)NC(=O)[C@H](Cc1c[nH]cn1)NC(=O)[C@H](CCCNC(=N)N)NC(=O)[C@H](CC(=O)O)NC(=O)[C@H](CC(=O)O)NC(=O)[C@@H](NC(=O)[C@H](CC(=O)O)NC(=O)[C@@H]1CCCN1C(=O)[C@@H](N)CC(C)C)[C@@H](C)O)C(=O)N[C@@H](CCC(=O)O)C(=O)N[C@@H](CCC(=O)O)C(=O)N[C@@H](CCCCN)C(=O)N[C@@H](CCCNC(=N)N)C(=O)N[C@@H](CCCCN)C(=O)N[C@@H](CCCNC(=N)N)C(=O)N[C@H](C(=O)N[C@@H](Cc1ccc(O)cc1)C(=O)N[C@@H](CCC(=O)O)C(=O)N[C@H](C(=O)N[C@@H](Cc1ccccc1)C(=O)N[C@@H](CCCCN)C(=O)N[C@@H](CO)C(=O)N[C@H](C(=O)N[C@@H](CCSC)C(=O)N[C@@H](CCCCN)C(=O)N[C@@H](CCCCN)C(=O)N[C@@H](CO)C(=O)N1CCC[C@H]1C(=O)N[C@@H](Cc1ccccc1)C(=O)N[C@@H](CC(N)=O)C(=O)NCC(=O)N1CCC[C@H]1C(=O)O)[C@@H](C)CC)[C@@H](C)O)[C@@H](C)O`, “heat capacity change (ΔCp)” read -0.4 kcal/(mol·K) (IκBα (67-287); binding, isothermal titration calorimetry; concentration not given, pH 7.5, range over 294 to 303 K).
For `O=C1c2ccccc2CCN1CCCCN1CCN(c2cccc(Cl)c2Cl)CC1`, the inhibition was 98.7% (HTR2A; radioligand binding; concentration not given, together with: [3H]ketanserin).
The Vmax of `Nc1ccn([C@H]2C[C@H](O)[C@@H](COP(=O)(O)OP(=O)(O)OP(=O)(O)O)O2)c(=O)n1` is reported as 0.29 product fraction (Gag-Pol polyprotein, reverse transcriptase (gag-pol, Human immunodeficiency virus type 1 group M subtype B, UniProt P04585); nucleotide incorporation, substrate; HIV-1; together with: RNA template).
For `CC1(C)CC2(C)OC(=O)NC2(C)c2ccccc21` (stereo not shown), “log fold enrichment” read 0.0681 (RFWD3; binding, affinity selection mass spectrometry; reference: other proteins in batch).
For `Nc1ncnc2c1ncn2[C@@H]1O[C@H](CO[P@](=O)(O)O[P@](=O)(O)O[P@@](=O)(O)S)[C@@H](O)[C@H]1O`, the ΔH was -0.498 kcal/mol (GUK1 (Homo sapiens, UniProt Q16774); binding, isothermal titration calorimetry; molar ratio 1.955, fitted curve).
The Vmax of `O=C(O)[C@H]1O[C@@H](Oc2cc(-c3oc4cc(O)cc(O)c4c(=O)c3O)ccc2O)[C@H](O)[C@@H](O)[C@@H]1O` is reported as 1.77 ± 0.71 nmol/mg/min (UGT1A1 (Homo sapiens, UniProt P22309); glucuronidation, substrate; Supersomes).
With `N[C@@H](CCC(=O)O)C(=O)O` the reversal potential was -27.5 ± 1.1 mV (uncharacterized protein (Ixodes scapularis, UniProt A0A0N9E2I2); two-electrode voltage clamp; Xenopus oocytes; extracellular Cl- 107.6 mM).
`CC[C@@H]1[C@H](F)C(=O)N[C@@H]1COc1nccc2cc(C(N)=O)c(OC)cc12` has an inhibition of -0.0616% (PIKFYVE (Homo sapiens, UniProt Q9Y2I7); ATP probe binding, KiNativ profiling, item: ATP loop probe site; THP-1 cell lysate; 0.2 mM).
For `O=C(CN1CCO[C@H](COc2ccccc2)C1)N1CCc2ccccc21`, the inhibition was 42.6% (HTR2C (Homo sapiens, UniProt P28335); radioligand binding; concentration not given, together with: [3H]mesulergine).
Under “normalised MST signal”, `NCCCCC(=O)O` is recorded as 0.0186 (SLC6A6 Y138A; binding, microscale thermophoresis; 488 nM, room temperature, together with: 50 nM labelled protein; higher = more binding).
For `CC[C@H](C)[C@@H]1NC(=O)[C@H](C)NC(=O)[C@H]([C@@H](C)CC)NC(=O)[C@H](CCC(N)=O)NC(=O)[C@H](C)NC(=O)[C@H](CCCNC(=N)N)NC(=O)[C@H](C(C)C)NC(=O)[C@H](CC(C)C)NC(=O)[C@H](CCC(=O)O)NC(=O)[C@H](CCCNC(=N)N)NC(=O)CNC(=O)[C@@H](NC(=O)[C@H](CC(C)C)NC(=O)[C@H](CCCCN)NC(=O)[C@@H](NC(=O)[C@@H](NC(=O)[C@H](CCC(=O)O)NC(=O)[C@H](CCC(=O)O)NC(=O)[C@H](CCSC)NC(=O)[C@H](Cc2c[nH]c3ccccc23)NC(=O)[C@H](CO)NC(=O)[C@@H](N)CC(=O)O)C(C)C)[C@@H](C)CC)CSSC[C@@H]2NC(=O)[C@@H](NC(=O)[C@H](CCCCN)NC(=O)[C@H](CC(N)=O)NC(=O)[C@H](C)NC(=O)[C@H](CC(C)C)NC(=O)[C@H](C)NC(=O)[C@H](CO)NC(=O)[C@H](Cc3ccc(O)cc3)NC(=O)[C@H](CC(C)C)NC(=O)[C@H](CCC(N)=O)NC(=O)c3ccc(-c4c5ccc(=[N+](C)C)cc-5oc5cc(N(C)C)ccc45)c(C(=O)[O-])c3)CSSC[C@H](NC(=O)CNC(=O)[C@H](C(C)C)NC(=O)[C@H](Cc3c[nH]cn3)NC2=O)C(=O)N[C@@H]([C@@H](C)O)C(=O)N[C@@H](CCCCN)C(=O)N[C@@H](CCCNC(=N)N)C(=O)N[C@@H](CO)C(=O)N[C@@H](CC(C)C)C(=O)N[C@@H](C)C(=O)N[C@@H](CCCNC(=N)N)C(=O)N[C@@H](Cc2ccccc2)C(=O)N[C@H](C(=O)O)CSSC[C@@H](C(=O)NCC(=O)N[C@@H](CCSC)C(=O)N[C@@H](CO)C(=O)N[C@H](C(=O)N[C@@H](Cc2c[nH]c3ccccc23)C(=O)N[C@@H](CO)C(=O)O)[C@@H](C)O)NC1=O`, “koff fast phase” read 0.00795 s⁻¹ (Relaxin receptor 1 (RXFP1, Homo sapiens, UniProt Q9HBX9, F76A/Y80A); NanoBRET dissociation; infinite dilution, together with: 1 µM relaxin).

Excerpt of the above:
For `Nc1nc2c(ncn2[C@@H]2O[C@H](COP(=O)(O)O)[C@@H](O)[C@H]2O)c(=O)[nH]1`, the reaction rate was 0.696 s⁻¹ and -0.00766 s⁻¹ and -0.712 s⁻¹ (GUK1 (Homo sapiens, UniProt Q16774, R44A); enzyme activity, NADH-coupled; 1000 µM).
`O=S(O)(O)=S` gave a thermal shift of 5.01 °C (Uncharacterized protein (Pelagibacter ubique, UniProt Q4FKX4); differential scanning fluorimetry; Candidatus Pelagibacter ubique; in-house screen).
For `CC(C)C[C@H](NC(=O)[C@H]1O[C@@H]1C(=O)O)C(=O)NCCCCN=C(N)N`, the kinact/KI was 18000 ± 11000 M⁻¹ s⁻¹ (Cathepsin B (CTSB, Homo sapiens, UniProt P07858); enzyme inactivation, irreversible inhibitor; pH 5.8, 37 °C, human liver enzyme).
With `Nc1ncnc2c1ncn2[C@@H]1O[C@H](COP(=O)(O)OP(=O)(O)OP(=O)(O)O)[C@@H](O)[C@H]1O` the Km was 120 ± 60 µM (CKMT1A (Homo sapiens, UniProt P12532, E265Q); substrate, ADP-Glo luminescence; pH 8.5, forward reaction, E227Q mutant, together with: second substrate in excess).
